Measurements pooled from the literature.
Lines come from different studies, so protocols differ. “And” joins repeats or separate records; there may be more than shown. Numbers after ± are the reported error. ≈ marks a conversion by molar mass, not a printed value.
UniProt O88693, sequence (whole entry, looked up): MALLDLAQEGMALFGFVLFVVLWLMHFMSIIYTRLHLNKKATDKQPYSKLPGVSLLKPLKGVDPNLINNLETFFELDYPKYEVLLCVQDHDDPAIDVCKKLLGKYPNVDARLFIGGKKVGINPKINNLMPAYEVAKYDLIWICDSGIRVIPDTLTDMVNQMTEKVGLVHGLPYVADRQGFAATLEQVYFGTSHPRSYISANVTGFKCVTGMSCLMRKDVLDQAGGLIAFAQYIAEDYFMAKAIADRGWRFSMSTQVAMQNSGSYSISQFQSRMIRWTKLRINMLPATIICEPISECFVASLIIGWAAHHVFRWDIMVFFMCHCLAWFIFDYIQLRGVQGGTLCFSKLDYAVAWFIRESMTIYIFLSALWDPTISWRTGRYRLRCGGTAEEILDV

Compound | tested on | assay | system | conditions | scale | quantity | value
CNS(=O)(=O)Nc1nccc(Cc2c(C)c3ccc(Oc4ncccc4F)cc3oc2=O)c1F | OE33 | cell viability |  | 7 days |  | IC50 | 110 nM
O=C(NCCO)c1ccc([C@H]2[C@@H](F)[C@@H](F)C[C@@H](F)[C@H]2F)cc1 |  | liver microsome stability | rat liver microsomes | 1 µM |  | hepatic clearance | 6.1 mL/min/kg
COc1ccccc1-c1ccncc1C(=O)Nc1nnc(OCc2ccc(Cl)cc2)s1 | MDA-MB-436 BRCA1-mutant |  |  | 6 µM |  | colony count | 7 and 11 and 6 and 12 and 13
COC1OC(C)C(OC2OC(C)C(O)C(OC3OC(C)C(OC4OC(C)C(O)C(OC5OC(C)C(OC6OC(C)C(O)C(OC7OC(C)C(OC8OC(C)C(O)C(OC9OC(C)C(OC%10OC(C)C(O)C(OC%11OC(C)C(OC%12OC(C)C(O)C(OS(=O)(=O)O)C%12OS(=O)(=O)O)C(OS(=O)(=O)O)C%11OS(=O)(=O)O)C%10OS(=O)(=O)O)C(OS(=O)(=O)O)C9OS(=O)(=O)O)C8OS(=O)(=O)O)C(OS(=O)(=O)O)C7OS(=O)(=O)O)C6OS(=O)(=O)O)C(OS(=O)(=O)O)C5OS(=O)(=O)O)C4OS(=O)(=O)O)C(OS(=O)(=O)O)C3OS(=O)(=O)O)C2OS(=O)(=O)O)C(OS(=O)(=O)O)C1OS(=O)(=O)O (stereo not drawn) |  |  | human plasma | 64 µg/mL |  | activated partial thromboplastin time | 94.1 s and 93.4 s and 96.7 s
CC[n+]1cccc2cc(/C=N/NC(=O)c3cc(C(=O)N/N=C/c4ccc5c(ccc[n+]5CC)c4)ncn3)ccc21 | 22CTA telomeric G4-DNA antiparallel | FRET melting |  | 1 µM, K10 buffer, DNA 0.2 µM, together with: ds26 10 µM |  | ΔTm | 4.3 ± 0.9 °C
CN1CCCNC(=O)c2cccc(c2)C(=O)NCCCN(C)CCCNc2cccc3c2C(=O)c2cccc(c2C3=O)NCCC1 | SAS | RNA-Seq, refers to: CHORDC1 mRNA |  | 1 µM, 6 h | reference: untreated cells | log2 fold change | -1.6
C[n+]1ccc(/C=N/NC(=O)c2ccc3ccc(C(=O)N/N=C/c4cc[n+](C)c5ccccc45)nc3n2)c2ccccc21 | 22CTA telomeric G4-DNA antiparallel | FRET melting |  | 1 µM, K10 buffer, DNA 0.2 µM, together with: ds26 10 µM |  | ΔTm | 17.4 ± 0.1 °C
Cc1ncsc1-c1ccc(C(C)NC(=O)C2CC(O)CN2C(=O)C(NC(=O)CCCCCCCCCCN2CCCC(Nc3ncc(Cl)c(Nc4ccccc4S(=O)(=O)C(C)C)n3)C2)C(C)(C)C)cc1 (stereo not drawn) | 22Rv1 | RNA-seq, refers to: SLC35C1 mRNA |  | concentration not given | reference: DMSO | log2 fold change | -1.1
CC[n+]1cccc2cc(/C=N/NC(=O)c3ccc4ccc5ccc(C(=O)N/N=C/c6ccc7c(ccc[n+]7CC)c6)nc5c4n3)ccc21 | 22CTA telomeric G4-DNA antiparallel | FRET melting |  | 1 µM, K10 buffer, DNA 0.2 µM, together with: ds26 10 µM |  | ΔTm | 22.5 ± 0.4 °C
CN(C)c1cccc(-c2ccc([C@H]3[C@@H](F)[C@@H](F)C[C@@H](F)[C@H]3F)cc2)c1 |  | liver microsome stability | mouse liver microsomes | 1 µM |  | hepatic clearance | 87 mL/min/kg
c1ccc(-c2n[nH]cc2-c2ccnc3ccccc23)nc1 | YAK1 (Candida albicans) | kinase binding, MIB/MS competition | Candida albicans lysate | 1 µM | reference: DMSO | log2 fold change | -0.28
C=CC(=O)N1[C@@H](c2ccc3c(c2)OCO3)c2[nH]c3ccccc3c2C[C@H]1C(=O)N1CCN(C)CC1 | human cyclin E1 N112C-3xFLAG:CDK2 | co-IP with TMT proteomics, refers to: DDX5 |  | concentration not given, P17844 | reference: wild type DMSO | relative co-enrichment | 113%
O=C(N/N=C/c1cc[n+](CC2CC2)c2ccccc12)c1cc(C(=O)N/N=C/c2cc[n+](CC3CC3)c3ccccc23)ncn1 | 22CTA telomeric G4-DNA antiparallel | FRET melting |  | 1 µM, K10 buffer, DNA 0.2 µM, together with: ds26 10 µM |  | ΔTm | 10 ± 0.7 °C
OC[C@H]1[C@@H](O)[C@H](O)[C@@H](O)CN1CCCCCOCc1ccsc1 | Ceramide glucosyltransferase (Ugcg, Mus musculus, UniProt O88693) | enzyme activity, inhibitor | RAW264.7 | in situ, together with: C6-NBD-ceramide |  | IC50 | 53 nM
C=C(NC(=O)c1csc(-c2nc3c(cc2O)-c2nc(cs2)C(=O)NC(C(C)O)C(=O)NC(=C(C)OC)c2nc(cs2)C(=O)NC2c4nc(cs4)C(=O)NC(COC(=O)c4c5c6c(cccc6n4O)COC(=O)C(OC4CC(C)(O)C(N(C)C)C(C)O4)C2OC5)c2nc-3cs2)n1)C(N)=O (stereo not drawn) | Streptococcus pneumoniae |  | penicillin-resistant, 10 isolates | pH 7.0 |  | MIC50 | 7.8 ng/mL (≈ 5.43 nM)
C[n+]1cccc2cc(/C=N/NC(=O)N/N=C/c3ccc4c(ccc[n+]4C)c3)ccc21 | 22CTA telomeric G4-DNA antiparallel | FRET melting |  | 1 µM, K10 buffer, DNA 0.2 µM |  | ΔTm | 5.4 ± 0.9 °C
CO[C@@H]1[C@@H](OC(N)=O)[C@@H](O)[C@H](Oc2ccc3c(O)c(NC(=O)c4ccc(O)c(CC=C(C)C)c4)c(=O)oc3c2C)OC1(C)C | DLD-1 BRCA2-/- |  |  | 250 µM, mean of replicates A, B | reference: untreated | colony survival | 0.326%
COC1OC(C)C(OS(=O)(=O)O)C(OC2OC(C)C(OS(=O)(=O)O)C(OC3OC(C)C(OS(=O)(=O)O)C(OC4OC(C)C(OS(=O)(=O)O)C(OC5OC(C)C(OS(=O)(=O)O)C(OC6OC(C)C(OS(=O)(=O)O)C(OS(=O)(=O)O)C6OS(=O)(=O)O)C5OS(=O)(=O)O)C4OS(=O)(=O)O)C3OS(=O)(=O)O)C2OS(=O)(=O)O)C1OS(=O)(=O)O (stereo not drawn) |  |  | human plasma | 64 µg/mL |  | activated partial thromboplastin time | 128 s and 127 s
Nc1ncc(-c2cc(-c3cnn(CC(F)(F)F)c3)ncc2F)nc1C(=O)NC1CNCC(F)C1 (stereo not drawn) | CDK5 | KINOMEscan |  | 1 µM | reference: DMSO control | remaining binding | 100%
COC1CN([C@H]2CC[C@H]([C@@]3(C)Oc4c(Cl)cc(C(=O)NCc5c(SC)cc(C)[nH]c5=O)c(C)c4O3)CC2)C1 |  | RNA-seq, refers to: KREMEN1 mouse homolog | mouse, HT-1376 xenograft, whole blood | dose not given | reference: vehicle | log2 fold change | 0.2
CC[n+]1cccc2cc(/C=N/NC(=O)c3cccc(C(=O)N/N=C/c4ccc5c(ccc[n+]5CC)c4)n3)ccc21 | 22CTA telomeric G4-DNA antiparallel | FRET melting |  | 1 µM, K10 buffer, DNA 0.2 µM |  | ΔTm | 15.1 ± 0.5 °C
C=CC(=O)Nc1cccc(Cn2ncc3cnc(Nc4cnn(CCOC)c4)nc32)c1 | ACVR1B human | binding, KINOMEscan |  | 100 nM | lower = stronger binding | percent of control | 93%
CCN(CC)CC(=O)Nc1cccc(-n2cc(-c3ccc4ccc(-c5cn(-c6cccc(NC(=O)CN(CC)CC)c6)nn5)cc4c3)nn2)c1 | RCC4 | PCR array, refers to: F3 |  | 5 x IC50, 2 h, normoxia | reference: untreated | fold regulation | -1.37
O=C(N/N=C/c1ccc2c(ccc[n+]2Cc2ccccc2)c1)c1ccc2ccc(C(=O)N/N=C/c3ccc4c(ccc[n+]4Cc4ccccc4)c3)nc2n1 | 22CTA telomeric G4-DNA antiparallel | FRET melting |  | 1 µM, K10 buffer, DNA 0.2 µM |  | ΔTm | 17.3 ± 0.3 °C
COC1OC(C)C(OC2OC(C)C(O)C(OC3OC(C)C(OC4OC(C)C(O)C(OC5OC(C)C(OC6OC(C)C(O)C(OC7OC(C)C(OC8OC(C)C(O)C(OS(=O)(=O)O)C8OS(=O)(=O)O)C(OS(=O)(=O)O)C7OS(=O)(=O)O)C6OS(=O)(=O)O)C(OS(=O)(=O)O)C5OS(=O)(=O)O)C4OS(=O)(=O)O)C(OS(=O)(=O)O)C3OS(=O)(=O)O)C2OS(=O)(=O)O)C(OS(=O)(=O)O)C1OS(=O)(=O)O (stereo not drawn) |  |  | human plasma | 32 µg/mL |  | activated partial thromboplastin time | 102 s and 103 s
C[n+]1cc(/C=N/NC(=O)c2cccc(C(=O)N/N=C/c3cc4ccccc4[n+](C)c3)c2)cc2ccccc21 | 22CTA telomeric G4-DNA antiparallel | FRET melting |  | 1 µM, K10 buffer, DNA 0.2 µM, together with: ds26 10 µM |  | ΔTm | 7.3 ± 0.4 °C
COC1OC(C)C(OS(=O)(=O)O)C(OC2OC(C)C(OS(=O)(=O)O)C(OC3OC(C)C(OS(=O)(=O)O)C(OC4OC(C)C(OS(=O)(=O)O)C(OC5OC(C)C(OS(=O)(=O)O)C(OC6OC(C)C(OS(=O)(=O)O)C(OC7OC(C)C(OS(=O)(=O)O)C(OC8OC(C)C(OS(=O)(=O)O)C(OC9OC(C)C(OS(=O)(=O)O)C(OS(=O)(=O)O)C9O)C8O)C7O)C6O)C5O)C4O)C3O)C2O)C1O (stereo not drawn) |  |  | human plasma | 128 µg/mL |  | activated partial thromboplastin time | 40 ± 0.8 s

Excerpt of the above:
Compound | tested on | assay | system | conditions | scale | quantity | value
CN1CCCNC(=O)c2cccc(c2)C(=O)NCCCN(C)CCCNc2cccc3c2C(=O)c2cccc(c2C3=O)NCCC1 | SAS | RNA-Seq, refers to: CHORDC1 mRNA |  | 1 µM, 6 h | reference: untreated cells | log2 fold change | -1.6
C[n+]1ccc(/C=N/NC(=O)c2ccc3ccc(C(=O)N/N=C/c4cc[n+](C)c5ccccc45)nc3n2)c2ccccc21 | 22CTA telomeric G4-DNA antiparallel | FRET melting |  | 1 µM, K10 buffer, DNA 0.2 µM, together with: ds26 10 µM |  | ΔTm | 17.4 ± 0.1 °C
Cc1ncsc1-c1ccc(C(C)NC(=O)C2CC(O)CN2C(=O)C(NC(=O)CCCCCCCCCCN2CCCC(Nc3ncc(Cl)c(Nc4ccccc4S(=O)(=O)C(C)C)n3)C2)C(C)(C)C)cc1 (stereo not drawn) | 22Rv1 | RNA-seq, refers to: SLC35C1 mRNA |  | concentration not given | reference: DMSO | log2 fold change | -1.1
